Measurements from different studies.
Each line is one published result; not all experiments were run side by side. “And” joins repeats or separate records; there may be more than shown. Numbers after ± are the reported error. ≈ marks a conversion by molar mass, not a printed value.

For CC[C@H](C)[C@H](NC(=O)[C@H](C)NC(=O)[C@H](CCCCN)NC(=O)[C@H](CC(C)C)NC(=O)[C@H](C)NC(=O)[C@@H](NC(=O)[C@H](Cc1c[nH]cn1)NC(=O)[C@H](CC(C)C)NC(=O)[C@@H](NC(=O)[C@@H](NC(=O)[C@H](CCCCN)NC(=O)[C@H](C)NC(=O)[C@H](C)NC(=O)[C@H](CO)NC(=O)[C@H](CCCCN)NC(=O)[C@H](Cc1ccccc1)NC(=O)[C@@H](NC(=O)[C@H](CCCCN)NC(=O)[C@H](CC(C)C)NC(=O)[C@H](Cc1ccccc1)NC(=O)[C@H](CO)NC(=O)[C@H](CCCCN)NC(=O)[C@H](Cc1c[nH]c2ccccc12)NC(=O)[C@H](CCCCN)NC(C)=O)[C@@H](C)O)[C@@H](C)O)C(C)C)[C@@H](C)O)C(=O)N[C@@H](CO)C(=O)N[C@@H](CO)C(N)=O, the MBC range was 32 µg/mL (≈ 10.9 µM) (Enterococcus faecalis; ATCC 29212).
CCCCCCCCCCCC[N+](C)(C)CCCNCCC[N+](C)(C)CCCCCCCCCCCC.[Br-].[Br-] — result for “HA titre reduction”: 3 ± 2 log units (influenza A virus A/PR/8/34 (H1N1); concentration not given, pre-treatment).
CC[C@H](C)[C@@H]1NC(=O)[C@@H]2CCCN2C(=O)[C@H](CC(C)C)NC(=O)[C@H](CC(C)C)NC(=O)CNC(=O)[C@@H](NC(=O)[C@@H](NC(=O)[C@H](CC(=O)O)NC(=O)CNC(=O)[C@@H](NC(=O)[C@H](C)NC(=O)CNC(=O)[C@H](CCCCN)NC(=O)[C@H](CC(C)C)NC(=O)[C@H](CC(C)C)NC(=O)[C@H](CCCCN)NC(=O)CNC(=O)[C@@H](NC(=O)[C@@H](N)CC(C)C)C(C)C)C(C)C)C(C)C)CSSC[C@@H](C(=O)O)NC1=O: “log2 fold change” -2.36 (RNA-seq, refers to: C5ar1 mRNA; mouse traumatic brain injury, frontal cortex and hippocampus; dose not given; baseline: TBI plus compound vs TBI).
CCCCCCCCCCCC[N+](C)(C)CCCCCC[N+](C)(C)CCCCCCCCCCCC.[Br-].[Br-] gave a protection of 56.1 ± 1.9% (influenza A virus A/PR/8/34 (H1N1); concentration not given, post-treatment).
For CCOP(=S)(OCC)Oc1ccc([N+](=O)[O-])cc1, the IC50 was 55 ng/mL (≈ 0.189 µM) (nanobody A4; binding, ic-ELISA; together with: H1-OVA coating antigen).
CCCCCCCCCCCC[N+](C)(C)CCOCC[N+](C)(C)CCCCCCCCCCCC.[Br-].[Br-]: “HA titre reduction” 3 ± 1 log units (influenza A virus A/PR/8/34 (H1N1); concentration not given, pre-treatment).
For CN1CCN(S(=O)(=O)c2cc([N+](=O)[O-])ccc2N(CCOS(C)(=O)=O)CCOS(C)(=O)=O)CC1, “EFS ratio (T/C)” read 4.3 (NSG mice, sample BB PDX; intraperitoneal, 25 mg/kg weekly x3; baseline: treated over vehicle).
C=CCNCCc1c[nH]c2cccc(O)c12.C=CCNCCc1c[nH]c2cccc(O)c12.O=C(O)/C=C/C(=O)O gave a distance travelled of 2910 ± 321 cm (C57BL/6J mice; subcutaneous, 0.1 mg/kg, 30 min).
For CS(=O)(=O)CCCn1c(Cn2c(=O)n(CC(F)(F)F)c3ccncc32)cc2cc(Cl)ccc21, “LS mean difference vs placebo” read -0.91 log10 copies/mL (respiratory syncytial virus; RT-qPCR; hospitalized infants 1-24 months, nasal swab; oral, 6, 4.5 or 3 mg/kg daily, day 3, mid dose by age cohort; baseline: placebo).
O=C(O)/C=C/C(=O)O.Oc1cccc2[nH]cc(CCNC3CCCCC3)c12 has a distance travelled of 2760 ± 219 cm (C57BL/6J mice; subcutaneous, 1 mg/kg, 30 min).
C[C@H]1O[C@@H](O[C@H]2CC[C@@]3(C)[C@@H](CC[C@]4(C)[C@@H]3C=C[C@]35OC[C@@]6(CCC(C)(C)C[C@H]63)[C@@H](O)C[C@]54C)[C@]2(C)CO)[C@H](O)[C@@H](O[C@@H]2O[C@H](CO)[C@@H](O)[C@H](O)[C@H]2O)[C@H]1O gave an AST/ALT ratio of 1.18 and 1.99 and 2.23 and 2.12 (mouse, pair-fed, AAV8-TBG-Null, plasma; dose not given, high dose).
Under “head twitch count”, CCCNCCc1c[nH]c2cccc(O)c12.CCCNCCc1c[nH]c2cccc(O)c12.O=C(O)/C=C/C(=O)O is recorded as 6.4 ± 0.6 (C57BL/6J mice; subcutaneous, 0.03 mg/kg).
The activation of O=C(Cc1cc(C(F)(F)F)cc(C(F)(F)F)c1)NC1CCOC1=O (stereo not drawn) is reported as 15% (ExpR2 (Pectobacterium carotovorum); cellulase activity, agonist; Pectobacterium carotovorum, single-ExpR2 strain; 200 µM, 4 h; baseline: OHHL).
For CC(C)(C)NCCc1c[nH]c2cccc(O)c12.CC(C)(C)NCCc1c[nH]c2cccc(O)c12.O=C(O)/C=C/C(=O)O, “head twitch count” read 6.8 ± 1.6 (C57BL/6J mice; subcutaneous, 1 mg/kg).
O=C1NC(=O)C(C2C3=C(CCCC3=O)Oc3ccc([N+](=O)[O-])cc32)C(=O)N1 (stereo not drawn) has an IC50 of over 100000 ng/mL (3T3-L1 pre-adipocytes; cell viability, MTT; 72 h).
The distance travelled of CC(C)NCCc1c[nH]c2cccc(O)c12.O=C(O)/C=C/C(=O)O is reported as 2070 ± 262 cm (C57BL/6J mice; subcutaneous, 0.03 mg/kg, 30 min).
CCCCCCCCCCCCCCCCCC[N+](C)(C)CCCCCCCCCCCC[N+](C)(C)CCCCCCCCCCCCCCCCCC.[Br-].[Br-]: “HA titre reduction” 3 log units (influenza A virus A/PR/8/34 (H1N1); concentration not given, post-treatment).
CCCCNCCc1c[nH]c2cccc(O)c12.O=C(O)/C=C/C(=O)O has a distance travelled of 2720 ± 314 cm (C57BL/6J mice; subcutaneous, 3 mg/kg, 30 min).
With CC(NC(C)(C)C)C(=O)c1cccc(Cl)c1 (stereo not drawn) the lowest IC30 was 10.5 µM (seizure ion channel panel; ion current, inhibitor; lowest across channels).
For CCNCCc1c[nH]c2cccc(O)c12.CCNCCc1c[nH]c2cccc(O)c12.O=C(O)CCC(=O)O, the distance travelled was 2410 ± 95 cm (C57BL/6J mice; subcutaneous, 3 mg/kg, 30 min session).
CCCCCCCCCCCCCCCC[N+](C)(C)CCCCCCCCCC[N+](C)(C)CCCCCCCCCCCCCCCC.[Br-].[Br-] — result for “HA titre reduction”: 1 log units (influenza A virus A/PR/8/34 (H1N1); concentration not given, pre-treatment).

A few entries again:
C[C@H]1O[C@@H](O[C@H]2CC[C@@]3(C)[C@@H](CC[C@]4(C)[C@@H]3C=C[C@]35OC[C@@]6(CCC(C)(C)C[C@H]63)[C@@H](O)C[C@]54C)[C@]2(C)CO)[C@H](O)[C@@H](O[C@@H]2O[C@H](CO)[C@@H](O)[C@H](O)[C@H]2O)[C@H]1O gave an AST/ALT ratio of 1.18 and 1.99 and 2.23 and 2.12 (mouse, pair-fed, AAV8-TBG-Null, plasma; dose not given, high dose).
Under “head twitch count”, CCCNCCc1c[nH]c2cccc(O)c12.CCCNCCc1c[nH]c2cccc(O)c12.O=C(O)/C=C/C(=O)O is recorded as 6.4 ± 0.6 (C57BL/6J mice; subcutaneous, 0.03 mg/kg).
The activation of O=C(Cc1cc(C(F)(F)F)cc(C(F)(F)F)c1)NC1CCOC1=O (stereo not drawn) is reported as 15% (ExpR2 (Pectobacterium carotovorum); cellulase activity, agonist; Pectobacterium carotovorum, single-ExpR2 strain; 200 µM, 4 h; baseline: OHHL).
